Experimental data collected from several papers.
A part holds a random share of what one study measured. Substitutions count along the parent as printed.

Series 1
Target: RING finger protein unkempt homolog, zinc fingers 1-6, GST-SBP tag (UNK, Homo sapiens, UniProt Q9C0B0, residues 30-357)
Method: RNA Bind-n-Seq
Form: RNA
Matrix: in vitro
Concentration: not given
Setting: RNA with constant flanks, human-mouse chimeric sites, ends assumed
Reference: input RNA pool
Reading: higher = stronger binding
Quantity: bound/input enrichment
Shared flanks, not repeated: GGGAGUUCUACAGUCCGACGAUC … CAACAGAGGAUUGAGCAUCA
Target sequence (chain): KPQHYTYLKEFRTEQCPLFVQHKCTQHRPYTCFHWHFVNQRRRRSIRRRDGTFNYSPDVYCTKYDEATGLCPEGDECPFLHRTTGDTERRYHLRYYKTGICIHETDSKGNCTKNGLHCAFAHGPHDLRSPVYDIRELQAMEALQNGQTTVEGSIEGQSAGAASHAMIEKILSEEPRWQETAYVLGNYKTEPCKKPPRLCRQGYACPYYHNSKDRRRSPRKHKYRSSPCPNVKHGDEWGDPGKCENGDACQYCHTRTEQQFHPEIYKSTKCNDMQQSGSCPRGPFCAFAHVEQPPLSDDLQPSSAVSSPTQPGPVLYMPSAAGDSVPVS
Strand = AGAGAUAAAGCAUCUAGGAACAUGCGAGGCUCCCGGAUGAAUGGGUUGCCUAGCCCCACUCACAGCGCCCACUGUAGCUUCUACCGAACCAGAACCUUGCAGGCAUUGAGUAAUGAGAAG; value = 0.17 ratio
Strand = CUCUUUGAAUCUUUCAAGAGUUUUGAAGGUCUCUUUUAUUUUCUGGGGUCCAUUGUUAACUUUAGUCAGGACCCAGAUGUGCACUUUAAAUAUAUUCAGGCAGCUUGCAAGACUGGGCAA; value = 0.696 ratio
Strand = CUCAGAGACGUGGCAUAUCAGUAUGUGAAAAAGGGGGCUCGUAUAUUUGUGGAAGGGAAAGUGGACUAUGGCGAGUACAUGGAUAAAAACAAUGUGAGGCGACAAGCAACAACAAUCAUA; value = 0.312 ratio
Strand = CAGCGCCGAGGCCGCGGGUGCCCGCCGGGCCUCCCCAGCAGCAGCCAUGGGCAUCAAGUUUUUAGAAGUUAUCAAACCAUUCUGUGCAGUUCUACCAGAAAUUCAGAAACCGGAAAGGAA; value = 0.835 ratio
Strand = CCCUCCCCGGGCCACCCACCCCUCCCGGCUCCCCGCCGAGAUCCAGGUUUCUUCUUAUUUCAUAGCAAGCCAGAACAAUGUUCUACGCACAUUUUGUCCUCAGUAAAAGAGGGCCUCUGG; value = 1.65 ratio
Strand = UACUGCUGCUUUCAACUUAAAUCACUGAGGCAUCUCUACUGUUCUGUGAGCAUCAGGACUGUAGCGCUGUGUCACCACAUGAGAGUUCAGAAGCAGCCUUUCUGUGGAGAGUGAGAAUGA; value = 0.0657 ratio
Strand = AGGAGGAGGUUAAAGGGUGAAAAUGGGAUGGAGGAUUGUGUCAUGGCUCUGGAGACACUGUUCAGUGUCCUGCUUUCUCUGUGCAGACUGAUGGCCCCUUACACGCCCUUUCUGACUGAG; value = 0.118 ratio
Strand = GUCAACAGUUGUCUCAACCCCAUCCUCUACGCCUUCCUGGAUGAGAACUUCAAGGCCUGCUUCCGCAAGUUCUGCUGUGCUUCUGCCCUGCGCCGGGACGUGCAGGUGUCUGACCGCGUG; value = 0.368 ratio

Series 2
Target: Histone acetyltransferase KAT6A, both winged helices, GST fusion (KAT6A, Homo sapiens, UniProt Q92794, residues 1-181)
Method: protein binding microarray
Form: double-stranded DNA, one strand shown
Matrix: in vitro
Concentration: not given
Setting: 8-mer, flanks averaged, mean of 2 arrays, mostly near background
Reference: not given
Reading: higher = stronger binding
Quantity: E-score
Construct (chain): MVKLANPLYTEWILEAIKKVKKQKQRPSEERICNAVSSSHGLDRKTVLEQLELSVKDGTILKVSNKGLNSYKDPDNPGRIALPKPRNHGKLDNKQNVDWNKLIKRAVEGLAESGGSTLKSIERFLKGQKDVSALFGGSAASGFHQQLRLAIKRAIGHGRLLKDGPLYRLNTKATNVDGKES
Strand = CATGTTAC; value = -0.122
Strand = CTTGGTCA; value = -0.244
Strand = AGCCTGGA; value = -0.15
Strand = CAGATGAC; value = 0.00742
Strand = ACCGTTAA; value = 0.108
Strand = GATTCGCC; value = 0.0276
Strand = GCCGCTCC; value = 0.277
Strand = CCCTTCAG; value = -0.221

Series 3
Target: Sal-like protein 4, full length isoform A (SALL4, Homo sapiens, UniProt Q9UJQ4, residues 1-1053)
Chain of UniProt Q9UJQ4 (whole entry, looked up): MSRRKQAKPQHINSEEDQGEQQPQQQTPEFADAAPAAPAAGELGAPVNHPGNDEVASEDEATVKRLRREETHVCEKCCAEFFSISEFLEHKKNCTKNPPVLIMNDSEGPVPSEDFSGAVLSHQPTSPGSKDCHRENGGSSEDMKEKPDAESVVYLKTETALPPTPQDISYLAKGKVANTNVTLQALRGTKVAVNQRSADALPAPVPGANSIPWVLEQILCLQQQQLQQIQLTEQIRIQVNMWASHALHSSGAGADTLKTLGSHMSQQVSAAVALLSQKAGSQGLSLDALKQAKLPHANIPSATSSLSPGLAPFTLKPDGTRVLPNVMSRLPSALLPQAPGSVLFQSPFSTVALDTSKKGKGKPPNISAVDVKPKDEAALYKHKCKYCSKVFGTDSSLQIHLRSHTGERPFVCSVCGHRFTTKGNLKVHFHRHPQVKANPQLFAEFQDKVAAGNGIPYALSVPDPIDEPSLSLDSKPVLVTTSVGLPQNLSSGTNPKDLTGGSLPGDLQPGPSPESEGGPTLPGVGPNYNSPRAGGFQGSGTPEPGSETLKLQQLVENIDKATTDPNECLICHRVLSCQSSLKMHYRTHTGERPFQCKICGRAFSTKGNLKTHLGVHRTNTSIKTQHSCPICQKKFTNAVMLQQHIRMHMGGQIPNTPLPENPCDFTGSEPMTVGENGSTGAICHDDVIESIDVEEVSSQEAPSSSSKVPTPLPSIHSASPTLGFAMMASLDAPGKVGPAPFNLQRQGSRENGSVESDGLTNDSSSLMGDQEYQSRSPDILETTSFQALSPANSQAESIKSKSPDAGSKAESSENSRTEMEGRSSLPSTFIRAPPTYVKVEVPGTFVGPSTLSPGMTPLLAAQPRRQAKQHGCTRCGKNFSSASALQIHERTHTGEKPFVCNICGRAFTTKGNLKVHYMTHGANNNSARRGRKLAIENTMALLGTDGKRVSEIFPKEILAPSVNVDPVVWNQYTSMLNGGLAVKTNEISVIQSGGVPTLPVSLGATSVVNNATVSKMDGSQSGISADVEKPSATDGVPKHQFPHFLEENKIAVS
Method: universal PBM
Form: double-stranded DNA, one strand shown
Matrix: in vitro
Concentration: 600 nM
Setting: 8-mer, flanks averaged, mean of replicates
Reading: higher = stronger binding
Quantity: E-score
Strand = GGAGCCCA; value = -0.325
Strand = AGGGACCG; value = -0.308
Strand = AATGGAGC; value = -0.0232
Strand = GTCCGGCA; value = -0.204
Strand = AAGATAGC; value = 0.0985
Strand = CACATTCC; value = 0.072
Strand = GACGCGTA; value = 0.0513
Strand = ACAGAGCC; value = -0.192

Further values, each from its own experiment
Starting sequence: viral docking peptide; TSVRRALFTGGSD
Change = R4S; target = CCNF, cyclin fold, Cln2 fusion (human); test = yeast growth competition, sequencing; system = yeast; setting = strong parent motif; how to read = reference: not given, higher = stronger binding; quantity = normalised enrichment score; value = 6.57
